Assay results from different studies.
A part holds a random share of what one study measured.

Study 1
Target: Fragile X messenger ribonucleoprotein 1, C-terminal low-complexity region (Fmr1, Mus musculus, UniProt P35922)
Technique: RNA Bind-n-Seq
Molecule type: RNA
Sample: in vitro
Concentration: 200 nM
Notes: whole 134-nt RNA, ends assumed
With: 150 mM LiCl
Baseline: input library
Direction: higher = stronger binding
Library: 7-deaza-guanosine replaces G
`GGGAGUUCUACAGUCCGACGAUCUUGUGUUCGUGAAUUGUAACUCCAGAAGCAAUGCCUGUACAAGCUCCACAAUGGACGGAUUUCCUCUCCUGCCCAAUUUGCACUCAGACUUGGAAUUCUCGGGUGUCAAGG` gave a log2 enrichment of 1.8.
With `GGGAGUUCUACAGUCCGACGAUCGUCCUGUGCUACACAUCGUAUGUACCGAAUCGGGGAAAAAGGGGUUUGGGGUUUGGGGAAAGUAUUAUGUUACGCCGUUCGGAUCUGCACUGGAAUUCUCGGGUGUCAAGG` the log2 enrichment was -1.17.
`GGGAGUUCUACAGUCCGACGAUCAAGUCCUGUGCUACACAUCGUAUGUACCGAAUCGGAAAAAGGAAAAAGGUUUUUGGAAAGUAUUAUGUUACGCCGUUCGGAUCUGCACUUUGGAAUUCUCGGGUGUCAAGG` has a log2 enrichment of -2.57.
`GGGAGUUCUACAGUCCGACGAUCCAAAAUACCAAGGGAUUUAUAUGAGGAUGAGUUGGUGCCCCUUUUUGAGAAGGCCGGACCCAUUUGGGAUCUACGUCUUAUGAUGGAUCCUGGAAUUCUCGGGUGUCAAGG` has a log2 enrichment of 0.318.
With `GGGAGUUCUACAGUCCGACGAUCCGCUAAAGAGGAGCACGGUGGACUGAUGUGAGCUUCUCUUCCUGCCCCUUCCUCCCUGAUGUCCACUCCCUUCACCUUCCUCACGCCCGUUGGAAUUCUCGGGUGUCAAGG` the log2 enrichment was 2.06.
The log2 enrichment of `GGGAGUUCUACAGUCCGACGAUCAAGUCCUGUGCUACACAUCGUAUGUACCGAAUCGGUUUUUGGAAAAAAAGGAAAGGAAAGUAUUAUGUUACGCCGUUCGGAUCUGCACUUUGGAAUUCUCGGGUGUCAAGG` is reported as -2.81.
With `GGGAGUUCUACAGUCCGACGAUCCACAGACAACACGCACCCACACAGACACAGAGGGAAGGGGUUGGGAUGGGGACCGGGUGCACAGCAGGGCGGGGUAGGACCCCAGCCCCUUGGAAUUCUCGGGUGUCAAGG` the log2 enrichment was -0.0782.
For `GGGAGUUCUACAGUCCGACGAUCACCAUGCAGGUGGGCAUCUUUGGGAAGCGGGGCAAGGGGGGGAUAGGGAGGGGGGUAACACUUUGGGAACAGGUGGUCCCAGGUCGUUUCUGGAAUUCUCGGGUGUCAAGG`, the log2 enrichment was 1.33.
`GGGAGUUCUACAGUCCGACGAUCCACAGACAACACGCACCCACACAGACACAGAGGGAAGGGGUUGGGAUGGGGACAGGGUGCACAGCAGGGCGGGGUAGGACCCAAGCCCCUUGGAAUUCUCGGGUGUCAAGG` has a log2 enrichment of -0.509.
For `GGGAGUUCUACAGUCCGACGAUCUAACUUUAGAGGAGGAUCUGAUGGAUAUGGCAGUGGACGUGGAUUUGGGGAUGGCUAUAAUGGGUAUGGAGGAGGACCUGGAGCUGGCAAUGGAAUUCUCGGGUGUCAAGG`, the log2 enrichment was 0.118.
With `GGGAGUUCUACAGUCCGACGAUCAAGUCCUGUGCUACACAUCGUAUGUACCGAAUCGGGAGGGAAAAAGGGUUUUUGGGAAAGUAUUAUGUUACGCCGUUCGGAUCUGCACUUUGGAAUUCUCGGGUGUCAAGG` the log2 enrichment was -1.71.

Study 2
Target: Histone acetyltransferase KAT6A, winged helix 2, GST fusion (KAT6A, Homo sapiens, UniProt Q92794, residues 85-181)
Technique: protein binding microarray
Molecule type: double-stranded DNA, one strand shown
Sample: in vitro
Concentration: not given
Notes: 8-mer, flanks averaged, mean of 2 arrays, mostly near background
Baseline: not given
Direction: higher = stronger binding
Target sequence (chain): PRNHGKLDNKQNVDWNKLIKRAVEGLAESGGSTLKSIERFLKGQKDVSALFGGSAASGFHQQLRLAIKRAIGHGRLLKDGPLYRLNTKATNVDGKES
The E-score of `CGATCGCC` is reported as 0.0491.
With `ATACCTCC` the E-score was -0.0441.
`CACACTAA` gave an E-score of 0.046.
`ATTTATCC` has an E-score of 0.16.
The E-score of `AGGCTGAA` is reported as 0.0237.
For `CTGTGTCA`, the E-score was 0.0561.
With `CTGTGCAC` the E-score was -0.101.
The E-score of `CCTAAAAA` is reported as 0.131.
With `CTTACTAC` the E-score was -0.209.
The E-score of `CACTTCCG` is reported as -0.13.
For `ATTGTCCA`, the E-score was -0.00084.
For `GCAAGCTA`, the E-score was 0.115.
`ATACAAAT` has an E-score of 0.0141.
`ATATTTGC` gave an E-score of 0.0136.
For `CTTAGTAC`, the E-score was 0.0295.
`ACTTCGAT` has an E-score of 0.0394.
`GACGATGA` gave an E-score of -0.0684.
`ACGTTACG` has an E-score of -0.126.

Study 3
Target: Interferon regulatory factor 3, full length, phosphomimetic (IRF3, Homo sapiens, UniProt Q14653, residues 1-427, S386D/S396D/S398D/S402D/T404D/S405D)
Sequence of UniProt Q14653 (whole entry, unmodified, looked up): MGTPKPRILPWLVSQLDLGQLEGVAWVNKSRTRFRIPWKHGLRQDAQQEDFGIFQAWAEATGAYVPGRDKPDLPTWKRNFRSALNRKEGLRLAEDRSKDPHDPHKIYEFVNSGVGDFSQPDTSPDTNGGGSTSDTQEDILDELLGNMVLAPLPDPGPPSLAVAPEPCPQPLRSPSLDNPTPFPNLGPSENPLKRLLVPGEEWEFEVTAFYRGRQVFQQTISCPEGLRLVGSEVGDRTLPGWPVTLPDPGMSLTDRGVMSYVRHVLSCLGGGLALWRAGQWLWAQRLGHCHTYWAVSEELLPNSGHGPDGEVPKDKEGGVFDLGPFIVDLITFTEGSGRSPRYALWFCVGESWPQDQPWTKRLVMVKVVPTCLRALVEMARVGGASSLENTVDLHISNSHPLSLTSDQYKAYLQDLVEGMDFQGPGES
Technique: protein-binding microarray
Molecule type: double-stranded DNA, one strand shown
Sample: in vitro
Concentration: 2540 nM top
Notes: 60-bp whole probe
With: salmon DNA 0.4 mg/ml
Baseline: random background probes
Direction: higher = stronger binding
Constant ends, left off below: GCCTAGCAC … GTCTTGATTCGCTTGACGCTGCTG
Under “fitted relative affinity”, `CACGGTTTCCTTATCCTGACGTGCTAG` is recorded as 7.1 z-score.
Under “fitted relative affinity”, `GACGGACTGGGGTATTGGGACGTGCTA` is recorded as -0.993 z-score.
For `TTAGGACTGGCGTATCGGTTAGTGCTA`, “fitted relative affinity” read 0.266 z-score.
`GACGGGATCGGGTTTCGGGACGTGCTA` — result for “fitted relative affinity”: 1.42 z-score.
`TCATTTCTACTGTCTGTTACTGTGCTA`: “fitted relative affinity” 1.92 z-score.
Under “fitted relative affinity”, `GACGGATTCGACACTGGGGACGTGCTA` is recorded as 0.213 z-score.
`GACGGTATCGACACTGGGGGCGTGCTA`: “fitted relative affinity” 0.755 z-score.
Under “fitted relative affinity”, `GACGGTTACGACTTTCGGGACGTGCTA` is recorded as 0.756 z-score.
`TCAGATTTCAGTTTCTCACTGTGCTAG` — result for “fitted relative affinity”: 3.57 z-score.
`ATTGGTCTTCACTTGGCAAAGTGCTAG` — result for “fitted relative affinity”: -0.274 z-score.
Under “fitted relative affinity”, `GGGAGCTATTAATTATTTTGGTGCTAG` is recorded as -0.486 z-score.
For `GTCTTTGCAAAAGCTCCACCGTGCTAG`, “fitted relative affinity” read -0.199 z-score.
For `TTAGGTTCCTGTTTCGGTTAGTGCTAG`, “fitted relative affinity” read 6.27 z-score.
For `TTAGGTTTCGCCTTTCGGTTAGTGCTA`, “fitted relative affinity” read 3.6 z-score.
For `TTAGGTATCGACTTTCGGTGAGTGCTA`, “fitted relative affinity” read 1.34 z-score.
`GACGATTTCGGGTATCGAGGCGTGCTA` — result for “fitted relative affinity”: 1.73 z-score.
Under “fitted relative affinity”, `GACGGTAGCGACTATCGGGACGTGCTA` is recorded as -0.494 z-score.
`TCATGTTTGTCCCTATTACTGTGCTAG`: “fitted relative affinity” 0.659 z-score.
`TTAGGTATCGGTTTAGGTTAGTGCTAG`: “fitted relative affinity” 5.66 z-score.
Under “fitted relative affinity”, `GACGGTCTCGGTTGCGGGACGTGCTAG` is recorded as 0.926 z-score.

Study 4
Target: RNA binding protein fox-1 homolog 2, RRM domain, GST-SBP tag (RBFOX2, Homo sapiens, UniProt O43251-10, residues 100-194)
Technique: RNA Bind-n-Seq
Molecule type: RNA
Sample: in vitro
Concentration: 365 nM
Notes: natural RNA segment, single round, ends assumed
Baseline: no-protein control
Direction: higher = stronger binding
Target sequence (chain): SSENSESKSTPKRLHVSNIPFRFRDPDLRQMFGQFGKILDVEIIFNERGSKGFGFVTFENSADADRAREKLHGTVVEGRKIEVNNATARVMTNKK
For `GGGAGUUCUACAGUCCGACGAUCGCCUCGCACGUGCACCAGACCCCAUGAGAGGGCCGAGCUCUGCGAGGGGGAAAUGCCUUUGCAGCUCCAUUUAGUUGUUUGGAGACUGCUCCUGGGAUGCUAACCUGAUGUGGAAUUCUCGGGUGCCAA`, “RBNS enrichment (R)” read 0.553.
For `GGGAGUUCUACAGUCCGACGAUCGGAAACUCCCCACCUCACCCUGACAACCCUUGAUGUUUCCCAAAGUCUUUAGACAGCUGUGUGCAUGUUCAAAGACUUCAGGGGUGGAGUCUCACAAAGUCUUGUUUGACUGGAAUUCUCGGGUGCCAA`, “RBNS enrichment (R)” read 0.428.
`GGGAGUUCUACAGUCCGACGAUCUGCCCCCAGCGUGGGGCUAACGGGCGCCUUGUCUGUGUAUUUCUAUUUUGCAGCAGUACCAUCCCACUGAUAUCACGGGCCCGCUCAACCUCUCAGAUCCCUCGGUCAGCUGGAAUUCUCGGGUGCCAA` — result for “RBNS enrichment (R)”: 0.286.
`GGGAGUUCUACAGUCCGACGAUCUUUAGGAGGAUGGUGUAUGGUGGGGGCAAUAAAUGAGGUUUUUUGCAUUCCAAGGAAAUGGCAUAUGGAUUAACUGUAAGAAAUGAAAUAAGUAAUUUAUUGUAAGACAAUGGAAUUCUCGGGUGCCAA` — result for “RBNS enrichment (R)”: 1.12.
`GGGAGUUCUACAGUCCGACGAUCAAUUCAGUAUCCUUAUUUGUUCCAAGACUCUUAACCAAUACUGUGAUAUAAAGUUAGGAUUUGGGAAACGUGUAGUUAACAACUUGGAAACAUGAAGAUAUUAAAAUGGCUGGAAUUCUCGGGUGCCAA` — result for “RBNS enrichment (R)”: 0.434.
`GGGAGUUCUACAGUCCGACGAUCCCUGGACAACAAGAGCGAAACUCCGUCUUAGAAGUGGACCAGGACAGGACCAGAUUUUGGAGUCAUGGUCCGGUGUCCUUUUCACUACACCAUGUUUGAGCUCAGACCCCUGGAAUUCUCGGGUGCCAA` — result for “RBNS enrichment (R)”: 0.333.
`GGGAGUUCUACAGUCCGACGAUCUGCCAUAACCACAUUUAAUGGGAAAAACGGCAGUAUCACAGAUGUAAAUUAACUCACCAGAUUUACUGGGCCUGAACUCAUUCUCUUCUUGCUAUAUGAUUUAGCAAGUUUGGAAUUCUCGGGUGCCAA`: “RBNS enrichment (R)” 0.229.
`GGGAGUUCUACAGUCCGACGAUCCCAGGCCGUCUCUUGCUCCCUAAUUCAUUUCCCAGGAAGCUGUGAUACAGGGUGAAAUAAAGUCUUGUCUUAGAAACCAGGACCCUAAACCCCACACUAUGUAAUAGAAAUGGAAUUCUCGGGUGCCAA` — result for “RBNS enrichment (R)”: 0.345.
Under “RBNS enrichment (R)”, `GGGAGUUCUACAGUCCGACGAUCUAACAGCUCCAACAAUUUCAGAUCCAUGGGGCUGCUUGACCAUAGACCCUGUUUACUCCAUGCCUGUUCAAAAGUCAUUUUGACUUCUAGCUUUGUUUCACUUUCUUCUUUGGAAUUCUCGGGUGCCAA` is recorded as 2.78.
Under “RBNS enrichment (R)”, `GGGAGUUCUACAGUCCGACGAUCACUGUAAACAUACGACCUUUGUUUUUGUCUUAUGUUGGGGUAAAGGAAAGCAGGAAGGGGAAUUUUUAUCCUCCUCCCUUCCGUAAAGUGCUGGGAUAUUUUGAAUCCCCUGGAAUUCUCGGGUGCCAA` is recorded as 0.277.
For `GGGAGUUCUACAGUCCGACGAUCGAAAACGAUCCAAAGGAGGGCAGAGGCCGCACACCCUGGGCCGAGUCCUGCCCGACUUCCCAGUUAAAUGCUGCUUGUGCCCAGUGCUGCUUUCCCAAGCUCACCCCACCUGGAAUUCUCGGGUGCCAA`, “RBNS enrichment (R)” read 0.407.
For `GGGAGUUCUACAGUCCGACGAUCCCUUCCCACCUCAAGCGUCUGUAUAACAUUUAGACUACACAUAAAGUUUAUGUGGUACAGACAUGCCCUUGAGGUUGGUGGAAAAUAAAAAACAAGACCCUUCACACAGUUGGAAUUCUCGGGUGCCAA`, “RBNS enrichment (R)” read 0.266.
